Literature values that unrelated publications cite.
Lines come from different studies, so protocols differ. ± gives the spread as reported. Converted amounts (≈) assume the structure as drawn.

Structure (SMILES) = CCN(CC)CC#CCNc1ccnc2cc(Cl)ccc12; tested on = Plasmodium falciparum; test = parasite growth, SYBR Green I; system = 3D7; conditions = average of experiments; quantity = IC50; result = 46 nM
Structure (SMILES) = CN1CCN(Cc2cccc(CC(O)Cn3c4ccc(Br)cc4c4cc(Br)ccc43)c2)CC1 (centres unmarked); tested on = Plasmodium; test = parasite growth; quantity = IC50; result = 95 nM
Structure (SMILES) = COc1ccc(Nc2nc(Nc3ccc(OCC[18F])cc3)ncc2Br)cc1; system = S180 tumour-bearing mice, bone; conditions = intravenous, 60 min; quantity = tissue uptake; result = 4.16 ± 0.46 %ID/g
Structure (SMILES) = CCOC(=O)[C@H]1c2c(ccc3ccccc23)O[C@@H]2c3ccccc3CCN21; tested on = Staphylococcus aureus; test = efflux pump inhibition; system = ATCC 25923; conditions = 100 µM; scale = relative to: untreated cells; quantity = relative fluorescence index; result = 0.13
Structure (SMILES) = CCCCCOc1ccc(-c2ccc3ncnc(Nc4ccc(OCc5cccc(F)c5)c(Cl)c4)c3c2)c(F)c1F; tested on = Trypanosoma brucei; test = parasite growth; quantity = EC50; result = 6600 nM
Structure (SMILES) = c1ccc2c(c1)CCNC2c1c[nH]c2ncccc12 (centres unmarked); tested on = Escherichia coli; test = efflux pump inhibition; system = AG100A AcrAB-TolC deleted; conditions = 50 µM; scale = relative to: untreated cells; quantity = relative fluorescence index; result = 0.52
Structure (SMILES) = O=C(CCn1c(=O)c2ccccc2n(Cc2ccccc2F)c1=O)N1CCc2ccccc2C1; tested on = Plasmodium; test = parasite growth; quantity = IC50; result = 18100 nM
Structure (SMILES) = O=S(=O)(c1cccc(-c2ccc3ncnc(Nc4ccc(OCc5cccc(F)c5)c(Cl)c4)c3c2)c1)N1CCCC1; tested on = Trypanosoma brucei; test = parasite growth; quantity = EC50; result = 250 nM
Structure (SMILES) = NS(=O)(=O)c1nnc(NC(=O)C2CCCCC2)s1; tested on = Enterococcus faecalis; system = NR-31972; quantity = MIC; result = 1.72 µM (≈ 0.499 µg/mL)
Structure (SMILES) = CCOC(=O)[C@H]1c2ccc3ccccc3c2O[C@@H]2c3ccsc3CCN21; tested on = Staphylococcus aureus; test = efflux pump inhibition; system = ATCC 25923; conditions = 50 µM; scale = relative to: untreated cells; quantity = relative fluorescence index; result = 0.33
Structure (SMILES) = CN1CCN(S(=O)(=O)c2ccc(-c3ccc4ncnc(Nc5ccc(F)cc5)c4c3)cc2)CC1; tested on = Trypanosoma brucei; test = parasite growth; quantity = EC50; result = 2000 nM

A few entries again:
Structure (SMILES) = NS(=O)(=O)c1nnc(NC(=O)C2CCCCC2)s1; tested on = Enterococcus faecalis; system = NR-31972; quantity = MIC; result = 1.72 µM (≈ 0.499 µg/mL)
